Published values of several laboratories.
Every numbered part comes from another study and shows a few of its results, in no order.

Set 1
Target: Interferon regulatory factor 3, full length, phosphomimetic (IRF3, Homo sapiens, UniProt Q14653, residues 1-427, S386D/S396D/S398D/S402D/T404D/S405D)
Technique: protein-binding microarray
Form: double-stranded DNA, one strand shown
Matrix: in vitro
Concentration: 2540 nM top
Setting: 60-bp whole probe
Together with: salmon DNA 0.4 mg/ml
Baseline: random background probes
Direction: higher = stronger binding
Quantity: fitted relative affinity
Constant ends, left off below: GCCTAGCAC … GTCTTGATTCGCTTGACGCTGCTG
Target sequence (chain): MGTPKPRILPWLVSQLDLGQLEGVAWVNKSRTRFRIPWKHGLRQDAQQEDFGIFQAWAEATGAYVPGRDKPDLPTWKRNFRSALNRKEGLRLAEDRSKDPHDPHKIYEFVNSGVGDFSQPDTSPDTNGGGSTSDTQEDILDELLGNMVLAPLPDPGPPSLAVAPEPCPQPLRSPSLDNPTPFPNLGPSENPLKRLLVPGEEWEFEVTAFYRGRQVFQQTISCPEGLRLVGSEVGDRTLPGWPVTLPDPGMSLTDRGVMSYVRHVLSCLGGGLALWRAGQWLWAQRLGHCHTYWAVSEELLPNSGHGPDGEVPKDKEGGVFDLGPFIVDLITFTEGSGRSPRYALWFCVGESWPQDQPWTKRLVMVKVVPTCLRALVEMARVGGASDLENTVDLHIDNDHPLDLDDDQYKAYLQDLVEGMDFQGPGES
ATTTTTCTAATTTACTTTGGGTGCTAG: 1.86 z-score
TTAGGTTCCCTTTTCCTGTAGTGCTAG: 7.01 z-score
AACGATTTCAGTCTCGAGACGTGCTAG: 2.15 z-score
GACGAGTTCAGTTCCGAGACGTGCTAG: 0.696 z-score
TTAGGTCTCCTACTGATTTAGTGCTAG: 0.703 z-score
TTAGGTATCCGACTGGGTTAGTGCTAG: 1.94 z-score
CACTCTGTCCCTCTGTGACAGTGCTAG: 1.31 z-score
GTGGGGGGTGTGAGTGGGTGGTGCTAG: 0.148 z-score
CTTTCTTTTATGCTCTTTCTGTGCTAG: 5.22 z-score
TCAGCTCTGTTGCCTGGTACTGTGCTA: 0.0106 z-score
TTAGGTTTCTGGACTGGGTTAGTGCTA: 1.68 z-score
GACGGGCTGGGTTTCGGGACGTGCTAG: 0.713 z-score
TCATTTTTCTCAACCGTACTGTGCTAG: 1.64 z-score
GACGGTTTCGGACTGGGGATGTGCTAG: 4.2 z-score
TTAGGACTGGTCTTTCGGTTAGTGCTA: 0.118 z-score
TTAGATATTAGACTGGATTAGTGCTAG: -0.259 z-score

Set 2
Target: Phosphate system positive regulatory protein PHO4, full length, GST-tagged (PHO4, Saccharomyces cerevisiae, UniProt P07270, residues 1-312)
Technique: competition protein-binding microarray
Form: double-stranded DNA, one strand shown
Matrix: in vitro
Concentration: 2 µM
Setting: whole 60-bp probe, lowest competitor level
Together with: Cbf1 competitor, 0.05 µM
Direction: higher = stronger binding
Quantity: fluorescence intensity
Target sequence (chain): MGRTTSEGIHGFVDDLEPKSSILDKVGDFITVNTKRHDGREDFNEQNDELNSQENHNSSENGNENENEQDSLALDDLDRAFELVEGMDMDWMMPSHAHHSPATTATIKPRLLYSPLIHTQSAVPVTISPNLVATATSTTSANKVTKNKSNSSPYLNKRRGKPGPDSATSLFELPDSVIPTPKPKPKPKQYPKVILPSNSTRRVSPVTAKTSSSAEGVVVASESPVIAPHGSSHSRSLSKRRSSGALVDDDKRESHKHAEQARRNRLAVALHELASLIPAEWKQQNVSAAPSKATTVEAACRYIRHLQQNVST
AAAGCGGTAATTTGGGCTGTGGGTGCAGATATCTATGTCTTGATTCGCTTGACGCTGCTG: 4100 a.u.
TGCGCAACAACTTTTCACGTGGTATTATGTCTAGAAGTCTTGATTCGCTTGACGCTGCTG: 15100 a.u.
AAAGCGGTAATTTGCGGTGTGGGTGCAGATATCTATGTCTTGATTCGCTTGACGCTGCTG: 4900 a.u.
CGGGGTTAAGTTTTTCACGTGAAATGCTTGCAGCAGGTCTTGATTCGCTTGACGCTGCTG: 8010 a.u.
GGTTTACGTCAGGGTCCTTTGGCGGGTGGTGGTTCAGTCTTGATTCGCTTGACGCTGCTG: 5010 a.u.
CTTGGTCAATCAATCCACGTGAACCTCAACGCAGATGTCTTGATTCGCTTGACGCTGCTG: 14100 a.u.
CTTCTGTAAATTTGTCACGAGACTTGACGCGCCCCGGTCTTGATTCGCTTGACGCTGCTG: 6650 a.u.
CGGGGTTAAGTTTGGCGGGTGGGTGGCTTGCAGCAGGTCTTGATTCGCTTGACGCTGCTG: 5130 a.u.
CTAACGAAGGTTTTTCACGTGTAATACAAGCCAAGTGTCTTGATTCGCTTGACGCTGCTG: 11900 a.u.
TTGCTCGAACATTGTCATGTGATGCTAAACATTGTAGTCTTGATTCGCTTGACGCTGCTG: 6860 a.u.
AGACTGGGTCTCAGTCAGCTGAACAGAAAACTTCAAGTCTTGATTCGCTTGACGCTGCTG: 2110 a.u.
GCAGACTTGATCGTCTTCGTGATGGTAGCTTTCTGTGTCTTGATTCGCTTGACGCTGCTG: 3910 a.u.
AAATATTAGGGACAGTGCGTGCCGACCCATAAGTTGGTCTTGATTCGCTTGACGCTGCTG: 8990 a.u.
TTCTTTTCCCTTTAACATGTGGAGCATAGCAGGCTCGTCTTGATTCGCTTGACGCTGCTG: 8590 a.u.
CAGAATTTAGGCCTACACGATGGATGAAAAGGTGTAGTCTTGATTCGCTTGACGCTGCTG: 6970 a.u.
CTAACGAAGGTTTGCTTTGTGGGTGACAAGCCAAGTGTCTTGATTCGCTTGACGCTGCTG: 4000 a.u.
TTGGTACGAAGAAAGCACGTGGATTCAGCAATTCAAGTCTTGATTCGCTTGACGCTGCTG: 17600 a.u.

Set 3
Target: Ras GTPase-activating protein-binding protein 1, full length (G3BP1, Homo sapiens, UniProt Q13283)
Sequence of UniProt Q13283 (whole entry, looked up): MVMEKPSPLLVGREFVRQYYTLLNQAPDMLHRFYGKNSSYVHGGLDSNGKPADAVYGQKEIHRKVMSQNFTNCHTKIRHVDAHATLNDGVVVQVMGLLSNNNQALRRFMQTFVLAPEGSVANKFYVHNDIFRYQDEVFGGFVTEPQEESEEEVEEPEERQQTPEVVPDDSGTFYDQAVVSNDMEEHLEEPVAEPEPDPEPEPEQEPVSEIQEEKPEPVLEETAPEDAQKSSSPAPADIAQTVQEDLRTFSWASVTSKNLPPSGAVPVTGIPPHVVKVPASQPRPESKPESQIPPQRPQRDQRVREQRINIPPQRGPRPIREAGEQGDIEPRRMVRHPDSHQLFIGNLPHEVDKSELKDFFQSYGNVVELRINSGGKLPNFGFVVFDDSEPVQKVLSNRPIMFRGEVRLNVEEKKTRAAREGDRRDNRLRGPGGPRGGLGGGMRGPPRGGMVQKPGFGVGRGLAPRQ
Technique: RNA Bind-n-Seq
Form: RNA
Matrix: in vitro
Concentration: 200 nM
Setting: whole 134-nt RNA, ends assumed
Together with: 150 mM KCl
Baseline: input library
Direction: higher = stronger binding
Quantity: log2 enrichment
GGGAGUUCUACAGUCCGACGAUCGUCCUGUGCUACACAUCGUAUGUACCGAAUCGGGGUGGGGUUUUUUUGGGGAAAGGGGAAAGUAUUAUGUUACGCCGUUCGGAUCUGCACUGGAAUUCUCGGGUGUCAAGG: 0.434
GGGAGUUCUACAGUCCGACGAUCCCUCAAGUCCUGUGCUACACAUCGUAUGUACCGAAUCGGCGGGCGGGGCGGGGAAAGUAUUAUGUUACGCCGUUCGGAUCUGCACUUCCAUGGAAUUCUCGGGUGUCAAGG: 0.429
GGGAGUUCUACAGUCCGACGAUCCCUCAAGUCCUGUGCUACACAUCGUAUGUACCGAAUCGGGAGGGUGGGAGGGAAAGUAUUAUGUUACGCCGUUCGGAUCUGCACUUCCAGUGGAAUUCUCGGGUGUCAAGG: 1.81
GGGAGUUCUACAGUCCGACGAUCUUAUUCUGUGUGACACCUGCCCUCGUGCCUACCACCUCGUCUGCCUUGAUCCUGAGCUUGACCGGGCUCCAGAGGGCAAAUGGAGCUGCCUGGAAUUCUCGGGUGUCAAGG: 0.705
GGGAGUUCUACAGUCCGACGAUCAAGUCCUGUGCUACACAUCGUAUGUACCGAAUCGGUUUUUUUGGAAAGGUUUUUGGAAAGUAUUAUGUUACGCCGUUCGGAUCUGCACUUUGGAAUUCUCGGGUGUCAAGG: -1.4
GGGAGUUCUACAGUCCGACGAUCCAAGUCCUGUGCUACACAUCGUAUGUACCGAAUCGGGUGGGAAAAAAAGGGUGGGAAAGUAUUAUGUUACGCCGUUCGGAUCUGCACUUCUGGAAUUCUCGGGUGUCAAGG: 0.419
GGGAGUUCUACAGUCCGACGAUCCCUCAAGUCCUGUGCUACACAUCGUAUGUACCGAAUCGGAAAAAGGAGGAGGAAAGUAUUAUGUUACGCCGUUCGGAUCUGCACUUCCAGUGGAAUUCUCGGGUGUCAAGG: -0.103
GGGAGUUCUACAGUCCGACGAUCUCCUCAAGUCCUGUGCUACACAUCGUAUGUACCGAAUCGGUGGUUUGGAGGAAAGUAUUAUGUUACGCCGUUCGGAUCUGCACUUCCAGCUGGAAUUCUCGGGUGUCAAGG: -0.533
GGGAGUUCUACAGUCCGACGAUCCCUGUGCUACACAUCGUAUGUACCGAAUCGGGUUUUUGGGUUUUUUUGGGAAAAAAAGGGAAAGUAUUAUGUUACGCCGUUCGGAUCUGCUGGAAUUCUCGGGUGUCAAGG: -0.975
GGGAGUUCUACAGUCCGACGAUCCACAGACAACACACACCCACACAGACACAGAGGGAAGGGGUUGGGAUGGGGACAGGGUGCACAGCAGGGCGGGGUAGGACCCCAGCCCCUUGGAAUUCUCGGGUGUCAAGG: 1.28

Set 4
Target: RNA binding protein fox-1 homolog 2, RRM domain, GST-SBP tag (RBFOX2, Homo sapiens, UniProt O43251-10, residues 100-194)
Technique: RNA Bind-n-Seq
Form: RNA
Matrix: in vitro
Concentration: 365 nM
Setting: natural RNA segment, single round, ends assumed
Baseline: no-protein control
Direction: higher = stronger binding
Quantity: RBNS enrichment (R)
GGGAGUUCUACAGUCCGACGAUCGGGCCAGCCUCUCUGUGCUGCGUGGCUGUCGGUCCCCCUCAGCUGGGAAAGAGAGCACUGGCUCACUGUGCAGUUUUCAUGUUUCCUCAGCAAGCCAUCAAGCCUCACAUUGGAAUUCUCGGGUGCCAA: 0.465
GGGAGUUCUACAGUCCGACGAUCUGGAGUUCUGAACCCAUGAUGUUGUAUUAUGCUUCUUUCUCCUCUUAGCACUCUCAAAUUUCAGGUUUGUAAAACACAGUUUUUGUUUUGUGUUCUGGCAAAGUGAUCUCUGGAAUUCUCGGGUGCCAA: 0.365
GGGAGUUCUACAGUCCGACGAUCUUGGCAGUGAACUACUUUGAAGAAGUGGUCAAUGGGUUGUUGCUGCCAUGAGCAUGUACAACCUCUGGAGCUAGAAGCUCCUCAGGAAAGCCAGUUCUCCAAGUUCUUAAUGGAAUUCUCGGGUGCCAA: 0.93
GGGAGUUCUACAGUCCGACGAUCUUCUCUGUAGCUCCAGGGGAAUCUUUUUCUCUAAAACGUUUAUGCCCUCGCUUUGGCUAGAAACACAUUAACUGGUUUACUCAUUGGGAAUCCAGCAUAUUUAAGAGGUAUGGAAUUCUCGGGUGCCAA: 0.46
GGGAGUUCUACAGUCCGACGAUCUUCCUUGCCUCUUUACAGUACACUAAUCCGCCUAAAGGUGGCUGUUUGAUAUUUACCGUGAUAAUUACCUUACCUACCUACCUACUUUCAAUACACUUUAGGUAGCCGAUUGGAAUUCUCGGGUGCCAA: 1.06
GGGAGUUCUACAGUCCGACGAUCUUCAGGAACCUUGUCUGUUGUACAGGGAUAAAACCCACAAGAACAUGGGUACAGAACAGUUUUGGAAUGAACAUUGCCAGUGCUACAAUUGCACUAGUGGGGACUGCUUUUGGAAUUCUCGGGUGCCAA: 0.455
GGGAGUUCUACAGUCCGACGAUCAAGUCAUACCAAUGAAAAAAUGUAUAUGCACUUAUAAUUUUCCUAAUAAAGUUCUGUACUCAAAUGUGCCACCAACAGUUUGAAAUUAGUGUUACUACUUGGAAUUUUCUUGGAAUUCUCGGGUGCCAA: 0.576
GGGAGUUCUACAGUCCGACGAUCUGCUCUCAUUUGCAGUUUCUGUGUCAUGUUUGCUUCUUGAAUCUGAUUGACUAGAAUAUUUCUCCCCCCUGCCCCUUGAUGUGUGAUGUCACCACCUGGUCCUAAUUUAUUGGAAUUCUCGGGUGCCAA: 0.598
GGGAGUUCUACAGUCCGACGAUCUCUUUUUCUUUCUCUUUUUUUCCUUUUUCACUCAAAAUACUAUUAAGGAGUUUCUCAGACAAAUUGAAAAUUCUAUAUGUUUUGAGGAAAUAAGGGGAAGCUUUAGAGUUUGGAAUUCUCGGGUGCCAA: 0.55

Repeated from above (set 3):
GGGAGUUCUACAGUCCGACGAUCCCUCAAGUCCUGUGCUACACAUCGUAUGUACCGAAUCGGGAGGGUGGGAGGGAAAGUAUUAUGUUACGCCGUUCGGAUCUGCACUUCCAGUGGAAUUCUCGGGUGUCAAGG: 1.81
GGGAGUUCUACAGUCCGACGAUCUUAUUCUGUGUGACACCUGCCCUCGUGCCUACCACCUCGUCUGCCUUGAUCCUGAGCUUGACCGGGCUCCAGAGGGCAAAUGGAGCUGCCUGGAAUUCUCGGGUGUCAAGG: 0.705
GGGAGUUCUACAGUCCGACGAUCAAGUCCUGUGCUACACAUCGUAUGUACCGAAUCGGUUUUUUUGGAAAGGUUUUUGGAAAGUAUUAUGUUACGCCGUUCGGAUCUGCACUUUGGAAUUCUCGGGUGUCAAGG: -1.4
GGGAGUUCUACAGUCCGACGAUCCAAGUCCUGUGCUACACAUCGUAUGUACCGAAUCGGGUGGGAAAAAAAGGGUGGGAAAGUAUUAUGUUACGCCGUUCGGAUCUGCACUUCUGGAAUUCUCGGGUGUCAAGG: 0.419
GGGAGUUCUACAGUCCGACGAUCCCUCAAGUCCUGUGCUACACAUCGUAUGUACCGAAUCGGAAAAAGGAGGAGGAAAGUAUUAUGUUACGCCGUUCGGAUCUGCACUUCCAGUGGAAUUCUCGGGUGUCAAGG: -0.103
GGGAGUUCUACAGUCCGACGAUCUCCUCAAGUCCUGUGCUACACAUCGUAUGUACCGAAUCGGUGGUUUGGAGGAAAGUAUUAUGUUACGCCGUUCGGAUCUGCACUUCCAGCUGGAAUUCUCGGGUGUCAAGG: -0.533
